Published values of several laboratories.
Lines come from different studies, so protocols differ. “And” joins repeats or separate records; there may be more than shown. ± gives the spread as reported.

The viability of Cc1ccc(OCCN(C)C)cc1C(=O)N[C@H](C)c1cc(-c2ccnn2C)nc2ccccc12 is reported as 99.1% and 95.1% (Vero E6; 7.812 µM).
With CC[C@H](C)[C@H](NC(=O)[C@H](CCCCN)NC(=O)CNC(=O)[C@H](CC(C)C)NC(=O)[C@H](Cc1ccccc1)NC(=O)[C@H](CCCCN)NC(=O)[C@H](CO)NC(=O)[C@H](Cc1ccccc1)NC(=O)[C@H](Cc1c[nH]c2ccccc12)NC(=O)[C@H](CCC(N)=O)NC(=O)[C@@H](NC(=O)[C@H](Cc1ccccc1)NC(=O)CCCCCNC(=O)CN1CCN(CC(=O)O)CCN(CC(=O)O)CCN(CC(=O)O)CC1)C(C)C)C(=O)N[C@@H](CCC(=O)O)C(=O)N1CCC[C@H]1C(=O)N[C@@H](CC(=O)O)C(=O)N[C@H](C(=O)N[C@@H](CO)C(=O)N[C@@H](CCC(N)=O)C(=O)N[C@H](C(=O)N[C@@H](CCC(N)=O)C(=O)N[C@@H](CC(=O)O)C(=O)N1CCC[C@H]1C(=O)N[C@@H](CC(N)=O)C(=O)N[C@@H](CC(=O)O)C(=O)N[C@@H](CCC(N)=O)C(=O)N[C@@H](Cc1ccc(O)cc1)C(=O)N[C@@H](CCC(=O)O)C(=O)N1CCC[C@H]1C(=O)N[C@@H](Cc1ccccc1)C(=O)O)C(C)C)C(C)C [copper-64 labelled] the tissue uptake was 11.1 ± 1.9 %ID/g (C57BL/6 mice, male, tumour-free, small intestine; 1 h).
CSCC[C@H](NC(=O)CNC(=O)[C@H](CCCCN)NC(=O)[C@H](CC(C)C)NC(=O)[C@@H]1CCCN1C(=O)[C@H](CO)NC(=O)[C@H](Cc1c[nH]cn1)NC(=O)[C@H](Cc1c[nH]c2ccccc12)NC(=O)[C@H](CCCNC(=N)N)NC(=O)[C@H](CC(C)C)NC(=O)[C@H](CCCNC(=N)N)NC(=O)[C@H](Cc1c[nH]c2ccccc12)NC(=O)[C@H](CS)NC(=O)CCCCCNC(=O)CN1CCN(CC(=O)O)CCN(CC(=O)O)CCN(CC(=O)O)CC1)C(=O)O [copper-64 labelled] gave a tissue uptake of 1.93 ± 0.15 %ID/g (PET imaging; C57BL/6J mice bearing B16-F10 tumours, tumour; intravenous, 25 h).
CN1Cc2cc(Cl)ccc2-n2c(nnc2C2CCN(c3cccc([18F])n3)CC2)C1 has a tissue uptake of 11.6 ± 2.5 %ID/g (C57BL/6 mouse male, kidney; intravenous, 3.7 MBq, 30 min).
O=C1NC2(CC2)COc2ncc(F)cc2[C@H]2COCCN2c2ccn3ncc1c3n2: “organ-to-brain weight ratio” 28.7 ± 8.92% (Sprague-Dawley rat, male, thymus; oral, 2.5 mg/kg/day, 4 weeks, end of treatment).
CC(C)C[C@@H](NC(=O)[C@@H](CCCNC(=N)N)NC(=O)[C@@H](Cc1c[nH]cn1)NC(=O)[C@@H](Cc1c[nH]c2ccccc12)NC(=O)[C@@H](Cc1c[nH]cn1)NC(=O)[C@@H](Cc1ccccc1)NC(=O)[C@H](NC(=O)[C@@H](Cc1ccc(O)cc1)NC(=O)CNC(=O)CNC(=O)CCOCCOCCOCCNC(=O)CN1CCN(CC(=O)O)CCN(CC(=O)O)CC1)[C@H](C)O)C(=O)N[C@H](CC(N)=O)C(=O)N1CCC[C@@H]1C(=O)O [gallium-68 labelled] gave a tissue uptake of 1.76 ± 0.26 %ID/g (gamma counting; C57BL/6 mice, male, spleen; intravenous, 1.85 MBq, 120 min).
The tissue uptake of CC[C@H](C)[C@H](NC(=O)[C@H](CCCNC(=N)N)NC(=O)[C@H](CCCCN)NC(=O)[C@H](Cc1ccc(O)cc1)NC(=O)[C@H](CC(=O)O)NC(=O)[C@H](C)NC(=O)CNC(=O)CCOCCOCCOCCNC(=O)CN1CCN(CC(=O)O)CCN(CC(=O)O)CCN(CC(=O)O)CC1)C(=O)N[C@H](C(=O)N[C@H](C(=O)N[C@@H](CCCCN)C(=O)N[C@H](C(=O)N[C@@H](CC(N)=O)C(N)=O)C(C)C)C(C)C)[C@@H](C)O [copper-64 labelled] is reported as 1.7 ± 0.476 %ID/g (ex vivo gamma counting; C57BL/6J male mice, B16-F10 tumour, muscle; intravenous, 1.85 MBq, 5 min).
CCn1ccc(-c2cc([C@@H](C)NC(=O)c3cc(OC[C@@H]4CCN4C)ccc3C)c3ccccc3n2)n1 gave a viability of 94% (African green monkey cells; 7.812 µM).
CC[C@H](C)[C@H](NC(=O)[C@H](CCCNC(=N)N)NC(=O)[C@H](CCCCN)NC(=O)[C@H](Cc1ccc(O)cc1)NC(=O)[C@H](CC(=O)O)NC(=O)[C@H](C)NC(=O)CNC(=O)CCOCCOCCOCCNC(=O)CN1CCN(CC(=O)O)CCN(CC(=O)O)CCN(CC(=O)O)CC1)C(=O)N[C@H](C(=O)N[C@@H](CC(C)C)C(=O)N[C@@H](CCCCN)C(=O)N[C@H](C(=O)N[C@@H](CC(N)=O)C(N)=O)C(C)C)[C@@H](C)O [copper-64 labelled] gave a tissue uptake of 1.39 ± 0.404 %ID/g (ex vivo gamma counting; C57BL/6J male mice, B16-F10 tumour, muscle; intravenous, 1.85 MBq, 5 min).
For C[C@H](O)[C@@H](NC(=O)[C@H]1CCCN1C(=O)[C@@H](CCCCN)NC(=O)[C@@H](CO)NC(=O)[C@@H](Cc1ccc(O)cc1)NC(=O)[C@@H](CC(N)=O)NC(=O)CCOCCOCCOCCNC(=O)CN1CCN(CC(=O)O)CCN(CC(=O)O)CCN(CC(=O)O)CC1)C(=O)N[C@H](CC(=O)O)C(=O)N[C@H](CCCNC(=N)N)C(=O)N[C@H](CCC(N)=O)C(=O)N[C@H](Cc1ccc(O)cc1)C(=O)N[C@H](Cc1c[nH]cn1)C(=O)N[C@H](Cc1ccccc1)C(N)=O [gallium-68 labelled], the tissue uptake was 1.88 ± 0.28 %ID/g (BALB/c nude mice U-87 MG tumour, pancreas; intravenous, 1.85 MBq, 0.08333 h, radiolabelled).
The tissue uptake of CCCC[C@H]1C(=O)N(C)[C@@H](CCCC)C(=O)N[C@@H](CCCNC(=O)CN2CCN(CC(=O)O)CCN(CC(=O)O)CCN(CC(=O)O)CC2)C(=O)N[C@H](C(=O)NCC(N)=O)CSCC(=O)N[C@@H](Cc2ccc(O)cc2)C(=O)N(C)[C@@H](C)C(=O)N[C@@H](CC(N)=O)C(=O)N2CCC[C@H]2C(=O)N[C@@H](Cc2c[nH]cn2)C(=O)N[C@@H](CC(C)C)C(=O)N(C)CC(=O)N[C@@H](Cc2c[nH]c3ccccc23)C(=O)N[C@@H](CO)C(=O)N[C@@H](Cc2c[nH]c3ccccc23)C(=O)N1C [gallium-68 labelled] is reported as 9 ± 1.97 %ID/g (NOD/SCID mice with CHO-hPD-L1 xenograft, lung; 10 min post injection).

Some of these lines once more:
O=C1NC2(CC2)COc2ncc(F)cc2[C@H]2COCCN2c2ccn3ncc1c3n2: “organ-to-brain weight ratio” 28.7 ± 8.92% (Sprague-Dawley rat, male, thymus; oral, 2.5 mg/kg/day, 4 weeks, end of treatment).
